Results pooled from the literature.
Numbered parts are unrelated; each lists some results of a single study.

Block 1 — technique: RNA Bind-n-Seq; molecule type: RNA; matrix: in vitro; tested at: 200 nM; notes: whole 134-nt RNA, ends assumed; added: 150 mM KCl; relative to: input library; reading: higher = stronger binding
Target: Ras GTPase-activating protein-binding protein 1, full length (G3BP1, Homo sapiens, UniProt Q13283)
Chain of UniProt Q13283 (whole entry, looked up): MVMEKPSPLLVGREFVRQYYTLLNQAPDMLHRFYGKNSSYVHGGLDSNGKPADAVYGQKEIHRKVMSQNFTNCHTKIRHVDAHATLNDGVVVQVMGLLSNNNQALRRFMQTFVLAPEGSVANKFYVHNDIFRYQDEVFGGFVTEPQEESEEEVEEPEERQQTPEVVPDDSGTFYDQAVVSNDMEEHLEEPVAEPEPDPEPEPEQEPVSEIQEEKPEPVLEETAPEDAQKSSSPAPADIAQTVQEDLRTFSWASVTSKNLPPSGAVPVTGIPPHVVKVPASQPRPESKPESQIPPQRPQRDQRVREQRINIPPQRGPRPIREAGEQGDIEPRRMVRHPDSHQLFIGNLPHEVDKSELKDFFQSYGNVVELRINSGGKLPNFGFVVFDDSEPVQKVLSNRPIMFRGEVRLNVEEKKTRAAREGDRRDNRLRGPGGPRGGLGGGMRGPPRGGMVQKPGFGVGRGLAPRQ
The log2 enrichment of `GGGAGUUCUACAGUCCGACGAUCUAACUUUAGAGGAGGAUCUGAUGGAUAUGGCAGUGGGCGUGGAUUUGGGGAUGGCUAUAAUGGGUAUGGAGGAGGACCUGGAGGUGGCAAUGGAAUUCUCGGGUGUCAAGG` is reported as 0.597.
`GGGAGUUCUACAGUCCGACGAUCUCAAGUCCUGUGCUACACAUCGUAUGUACCGAAUCGGGUUUGGGUGGGAAAGGGAAAGUAUUAUGUUACGCCGUUCGGAUCUGCACUUCCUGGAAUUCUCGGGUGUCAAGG` has a log2 enrichment of 1.06.
`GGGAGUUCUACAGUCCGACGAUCACCAUGCAGGUGGGCGUCUUUGGGAAGUGGGGCAAGGGGGGGAUAGGGAGGGGGGUAACACUUUGGGAACAGGUGGUCCCAGGUCGUUUCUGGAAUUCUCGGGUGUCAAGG` has a log2 enrichment of 0.93.
With `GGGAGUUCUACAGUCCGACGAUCCCUCAAGUCCUGUGCUACACAUCGUAUGUACCGAAUCGGGUUGGUUGGGUUGGAAAGUAUUAUGUUACGCCGUUCGGAUCUGCACUUCCAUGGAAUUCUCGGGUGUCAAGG` the log2 enrichment was -0.195.
The log2 enrichment of `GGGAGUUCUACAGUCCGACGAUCAGUCCUGUGCUACACAUCGUAUGUACCGAAUCGGGGAAAAGGGAAAAGGGGAAAAGGAAAGUAUUAUGUUACGCCGUUCGGAUCUGCACUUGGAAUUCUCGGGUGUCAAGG` is reported as -0.264.

Block 2 — technique: protein binding microarray; molecule type: double-stranded DNA, one strand shown; matrix: in vitro; tested at: not given; relative to: not given; reading: higher = stronger binding
Target: Histone acetyltransferase KAT6A, both winged helices, GST fusion (KAT6A, Homo sapiens, UniProt Q92794, residues 1-181)
Notes: 8-mer, flanks averaged, mean of 2 arrays, mostly near background
Target sequence (chain): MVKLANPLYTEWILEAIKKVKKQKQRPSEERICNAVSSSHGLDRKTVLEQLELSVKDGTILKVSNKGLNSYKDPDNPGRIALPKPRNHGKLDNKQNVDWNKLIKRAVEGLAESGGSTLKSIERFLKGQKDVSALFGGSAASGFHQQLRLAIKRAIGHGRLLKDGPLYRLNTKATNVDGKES
For `AACCGATG`, the E-score was 0.0542.
The E-score of `GTAGTGAC` is reported as 0.106.
With `AGAATTCT` the E-score was 0.143.
The E-score of `GTGGCCAC` is reported as -0.0445.
`GTCTCTCA` gave an E-score of -0.0183.
With `CCGAGGAA` the E-score was 0.0101.
For `GTACACAA`, the E-score was 0.0268.
`ACGGGTCA` gave an E-score of 0.169.
`AGGAGCGG` gave an E-score of 0.222.
`AAAACCAG` has an E-score of -0.0941.

Block 3 — technique: protein-binding microarray; molecule type: double-stranded DNA, one strand shown; matrix: in vitro; tested at: 2200 nM top; notes: 60-bp whole probe; added: salmon DNA 0.4 mg/ml; relative to: random background probes; reading: higher = stronger binding; all sequences stand within: GCCTAGCAC … GTCTTGATTCGCTTGACGCTGCTG
Target: Interferon regulatory factor 7, full length, phosphomimetic (IRF7, Homo sapiens, UniProt Q92985, residues 1-503, S471D/S472D/S475D/S476D/S477D/S483D/S484D/S487D)
Chain of UniProt Q92985 (whole entry, unmodified, looked up): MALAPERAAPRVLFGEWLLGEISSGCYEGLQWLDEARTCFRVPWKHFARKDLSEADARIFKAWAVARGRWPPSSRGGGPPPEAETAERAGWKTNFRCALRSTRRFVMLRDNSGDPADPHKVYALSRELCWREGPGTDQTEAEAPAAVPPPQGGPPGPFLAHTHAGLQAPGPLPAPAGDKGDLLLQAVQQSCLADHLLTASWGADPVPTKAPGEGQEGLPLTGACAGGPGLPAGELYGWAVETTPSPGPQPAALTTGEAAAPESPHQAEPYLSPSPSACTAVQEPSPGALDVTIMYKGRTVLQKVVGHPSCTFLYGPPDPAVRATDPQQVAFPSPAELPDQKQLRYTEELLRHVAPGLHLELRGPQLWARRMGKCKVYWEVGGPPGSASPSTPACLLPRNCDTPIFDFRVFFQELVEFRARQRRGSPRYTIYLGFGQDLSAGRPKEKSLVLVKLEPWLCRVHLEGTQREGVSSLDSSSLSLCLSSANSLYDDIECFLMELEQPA
For `TTAGGTTTCGGGTATCGATTAGTGCTA`, “fitted relative affinity” read 5.97 z-score.
Under “fitted relative affinity”, `TTTGGTATCGGACTGGGTTAGTGCTAG` is recorded as 0.806 z-score.
`TGAGGACTGCTTCTCCTTTAGTGCTAG`: “fitted relative affinity” 0.521 z-score.
`GACGATTTCTGTATCGAGACGTGCTAG` — result for “fitted relative affinity”: 1.48 z-score.
For `TTAGGTTTCGACACTGGCTTAGTGCTA`, “fitted relative affinity” read 2.07 z-score.
`GACGGTTCCGGTTTAGGGACGTGCTAG`: “fitted relative affinity” 3.35 z-score.
`TTAGGTCTCCTTTTCCTTTAGTGCTAG` — result for “fitted relative affinity”: 1.96 z-score.
`GACGGTATCGGGTTTCGGGAGGTGCTA`: “fitted relative affinity” 1.03 z-score.
`TCAAAAATCCCATTAAAACTGTGCTAG`: “fitted relative affinity” -0.622 z-score.
Under “fitted relative affinity”, `GACGATCTCAGTATGGAGACGTGCTAG` is recorded as -0.37 z-score.

Other studies, line by line
With `PhoQ, residues 284 288 289 292 302 303 TTCLQL` the fold induction was 8.9 (PhoP, residues 12 14 15 18 19 NYFTV (Escherichia coli, UniProt P23836); Sort-seq, item: YFP reporter; E. coli; PhoQ-PhoP variant library, added: 10 µM Mg2+; relative to: high Mg2+ state, higher = stronger signaling).
